Measured values pooled from the literature.
Each line is one published result; not all experiments were run side by side.

| SMILES | organism | test | test system | conditions | MIC |
| --- | --- | --- | --- | --- | --- |
| CC[C@@H](C)[C@@H](NC(=O)[C@@H](C)NC(=O)[C@@H](CCCCN)NC(=O)[C@@H](CC(C)C)NC(=O)[C@@H](C)NC(=O)[C@H](NC(=O)[C@@H](Cc1c[nH]cn1)NC(=O)[C@@H](CC(C)C)NC(=O)[C@H](NC(=O)[C@H](NC(=O)[C@@H](CCCCN)NC(=O)[C@H](NC(=O)[C@@H](C)NC(=O)[C@@H](CO)NC(=O)[C@@H](CCCCN)NC(=O)[C@@H](Cc1ccccc1)NC(=O)[C@H](NC(=O)[C@@H](CCCCN)NC(=O)[C@@H](CC(C)C)NC(=O)[C@@H](Cc1ccccc1)NC(=O)[C@@H](CO)NC(=O)[C@@H](CCCCN)NC(=O)[C@@H](Cc1c[nH]c2ccccc12)NC(=O)[C@@H](CCCCN)NC(C)=O)[C@H](C)O)C(C)C)[C@H](C)O)C(C)C)[C@H](C)O)C(=O)N[C@H](CO)C(=O)N[C@H](CO)C(N)=O | Acinetobacter baumannii | – | 884, Mueller-Hinton broth | 24 h, 37 °C | 0.7 µM |
| CC1CCN(Cc2cc(N(C)C)c3c(c2O)C(=O)C2=C(O)[C@]4(O)C(=O)C(C(N)=O)=C(O)[C@@H](N(C)C)[C@@H]4C[C@@H]2C3)CC1 | Streptococcus pneumoniae | microbial growth, broth dilution | – | – | < 0.06 µg/mL |
| N#Cc1ccc2cccc(O)c2n1 | Saccharomyces cerevisiae | microbial growth | ATCC2601 | – | ≥ 645 µM |
| CN(C)c1cc(CNC2CCCCC2)c(O)c2c1C[C@H]1C[C@H]3[C@H](N(C)C)C(O)=C(C(N)=O)C(=O)[C@@]3(O)C(O)=C1C2=O | Streptococcus pneumoniae | – | ATCC 700905, Tet M ribosome protection | – | 0.5 µg/mL |
| c1ccc(CN2CCOCCOCCN(CCCCCCCCCCCCCCN3CCOCCOCCN(CCCCCCCCCCCCCCN4CCOCCOCCN(Cc5ccccc5)CCOCCOCC4)CCOCCOCC3)CCOCCOCC2)cc1 | Streptococcus pneumoniae | – | R:Pen | – | 3 µM |
| C[C@@H](c1ccn(Cc2ccc(C(F)(F)F)cc2)n1)[C@](O)(Cn1cnnn1)c1ccc(F)cc1F | Candida tropicalis | growth, broth microdilution | 2718 | 24 h, 30 °C, ≥50% inhibition | < 0.008 µg/mL |
| CC(C)C[C@H](NC(=O)[C@H](CC(N)=O)NC(=O)[C@H](CCCNC(=N)N)NC(=O)[C@@H](CC(C)C)NC(=O)[C@H](Cc1ccccc1)NC(=O)[C@H](CC(=O)O)NC(=O)[C@H](CCCCN)NC(=O)[C@@H](CC(C)C)NC(=O)[C@H](CCCNC(=N)N)NC(=O)[C@H](CCC(N)=O)NC(=O)[C@@H](NC(=O)[C@@H](CC(C)C)NC(=O)[C@H](CCCNC(=N)N)NC(=O)[C@H](CCCCN)NC(=O)[C@H](Cc1ccc(C(F)(F)F)cc1)NC(=O)CN)C(C)C)C(=O)N[C@H](C(N)=O)C(C)C | ESKAPE pathogens | – | – | most strains | 25 to 50 µM |
| CN(C)c1cc(CNCc2ccco2)c(O)c2c1C[C@H]1C[C@H]3[C@H](N(C)C)C(O)=C(C(N)=O)C(=O)[C@@]3(O)C(O)=C1C2=O | Streptococcus pneumoniae | – | ATCC 700905, Tet M ribosome protection | – | 0.5 µg/mL |
| C[C@@H](c1ccn(Cc2cccc(Cl)c2F)n1)[C@](O)(Cn1cnnn1)c1ccc(F)cc1F | Candida tropicalis | growth, broth microdilution | 2718 | 24 h, 30 °C, ≥50% inhibition | < 0.008 µg/mL |
| CN(C)c1cc(CN2CCCCCC2)c(O)c2c1C[C@H]1C[C@H]3[C@H](N(C)C)C(O)=C(C(N)=O)C(=O)[C@@]3(O)C(O)=C1C2=O | Streptococcus pneumoniae | microbial growth, broth dilution | – | – | 0.125 µg/mL |
| CC[C@@H](C)[C@@H](NC(=O)[C@@H](C)NC(=O)[C@@H](CCCCN)NC(=O)[C@@H](CC(C)C)NC(=O)[C@@H](CC(C)C)NC(=O)[C@H](NC(=O)[C@@H](CCCCN)NC(=O)[C@@H](CC(C)C)NC(=O)[C@@H](CCCCN)NC(=O)[C@@H](CCCCN)NC(=O)[C@@H](CCCCN)NC(=O)[C@@H](CCCCN)NC(=O)[C@@H](C)NC(=O)[C@@H](CCCCN)NC(=O)[C@@H](CO)NC(=O)[C@@H](Cc1ccccc1)NC(=O)[C@H](NC(=O)[C@@H](CCCCN)NC(=O)[C@@H](CC(C)C)NC(=O)[C@@H](Cc1ccccc1)NC(=O)[C@@H](CO)NC(=O)[C@@H](CCCCN)NC(=O)[C@@H](Cc1c[nH]c2ccccc12)NC(=O)[C@@H](CCCCN)NC(C)=O)[C@H](C)O)[C@H](C)O)C(=O)N[C@H](CO)C(=O)N[C@H](CCCCN)C(N)=O | Acinetobacter baumannii | – | 1012, Mueller-Hinton broth | 24 h, 37 °C | 0.6 µM |
| C[C@@H](c1ccn(Cc2cc(F)cc(F)c2)n1)[C@](O)(Cn1cnnn1)c1ccc(F)cc1F | Candida tropicalis | growth, broth microdilution | 2718 | 24 h, 30 °C, ≥50% inhibition | < 0.008 µg/mL |
| C=CCN(CC)Cc1cc(N(C)C)c2c(c1O)C(=O)C1=C(O)[C@]3(O)C(=O)C(C(N)=O)=C(O)[C@@H](N(C)C)[C@@H]3C[C@@H]1C2 | Streptococcus pneumoniae | microbial growth, broth dilution | – | – | 0.125 µg/mL |
| C[C@@H](c1ccn(Cc2ccccc2)n1)[C@](O)(Cn1cnnn1)c1ccc(F)cc1F | Candida tropicalis | growth, broth microdilution | 2718 | 24 h, 30 °C, ≥50% inhibition | < 0.008 µg/mL |
| Oc1c(Cl)cc(Cl)c2cccnc12 | Saccharomyces cerevisiae | microbial growth, agar dilution | ATCC2601 | – | 37.4 µM |
| CC[C@@H](C)[C@@H](NC(=O)[C@@H](C)NC(=O)[C@@H](CCCCN)NC(=O)[C@@H](CC(C)C)NC(=O)[C@@H](CC(C)C)NC(=O)[C@H](NC(=O)[C@@H](CCCCN)NC(=O)[C@@H](CC(C)C)NC(=O)[C@@H](C)NC(=O)[C@@H](CCCCN)NC(=O)[C@@H](CCCCN)NC(=O)[C@@H](CCCCN)NC(=O)[C@@H](C)NC(=O)[C@@H](CCCCN)NC(=O)[C@@H](CO)NC(=O)[C@@H](Cc1ccccc1)NC(=O)[C@H](NC(=O)[C@@H](CCCCN)NC(=O)[C@@H](CC(C)C)NC(=O)[C@@H](Cc1ccccc1)NC(=O)[C@@H](CO)NC(=O)[C@@H](CCCCN)NC(=O)[C@@H](Cc1c[nH]c2ccccc12)NC(=O)[C@@H](CCCCN)NC(C)=O)[C@H](C)O)[C@H](C)O)C(=O)N[C@H](CO)C(=O)N[C@H](CCCCN)C(N)=O | Acinetobacter baumannii | – | 985, Mueller-Hinton broth | 24 h, 37 °C | 0.7 µM |
| C[C@@H](c1ccn(Cc2ccc(F)cc2)n1)[C@](O)(Cn1cnnn1)c1ccc(F)cc1F | Candida tropicalis | growth, broth microdilution | 2718 | 24 h, 30 °C, ≥50% inhibition | < 0.008 µg/mL |
| CN(C)c1cc(CNCc2ccncc2)c(O)c2c1C[C@H]1C[C@H]3[C@H](N(C)C)C(O)=C(C(N)=O)C(=O)[C@@]3(O)C(O)=C1C2=O | Streptococcus pneumoniae | microbial growth, broth dilution | – | – | 2 µg/mL |
| C[C@@H](c1ccn(Cc2c(F)cc(Cl)cc2F)n1)[C@](O)(Cn1cnnn1)c1ccc(F)cc1F | Candida tropicalis | growth, broth microdilution | 2718 | 24 h, 30 °C, ≥50% inhibition | < 0.008 µg/mL |
| CC[C@@H](C)[C@@H](NC(=O)[C@@H](C)NC(=O)[C@@H](CCCCN)NC(=O)[C@@H](CC(C)C)NC(=O)[C@@H](C)NC(=O)[C@H](NC(=O)[C@@H](CCCCN)NC(=O)[C@@H](CC(C)C)NC(=O)[C@H](NC(=O)[C@@H](CCCCN)NC(=O)[C@@H](CCCCN)NC(=O)[C@@H](CCCCN)NC(=O)[C@@H](C)NC(=O)[C@@H](CCCCN)NC(=O)[C@@H](CO)NC(=O)[C@@H](Cc1ccccc1)NC(=O)[C@H](NC(=O)[C@@H](CCCCN)NC(=O)[C@@H](CC(C)C)NC(=O)[C@@H](Cc1ccccc1)NC(=O)[C@@H](CO)NC(=O)[C@@H](CCCCN)NC(=O)[C@@H](Cc1c[nH]c2ccccc12)NC(=O)[C@@H](CCCCN)NC(C)=O)[C@H](C)O)C(C)C)[C@H](C)O)C(=O)N[C@H](CO)C(=O)N[C@H](CCCCN)C(N)=O | Acinetobacter baumannii | broth microdilution | ATCC 19606 | 24 h, 37 °C | 0.7 µM |

Excerpt of the above:
| SMILES | organism | test | test system | conditions | MIC |
| --- | --- | --- | --- | --- | --- |
| C[C@@H](c1ccn(Cc2cccc(Cl)c2F)n1)[C@](O)(Cn1cnnn1)c1ccc(F)cc1F | Candida tropicalis | growth, broth microdilution | 2718 | 24 h, 30 °C, ≥50% inhibition | < 0.008 µg/mL |
| CN(C)c1cc(CNCc2ccncc2)c(O)c2c1C[C@H]1C[C@H]3[C@H](N(C)C)C(O)=C(C(N)=O)C(=O)[C@@]3(O)C(O)=C1C2=O | Streptococcus pneumoniae | microbial growth, broth dilution | – | – | 2 µg/mL |
